# Results gathered from unrelated publications.
# Compare with care: the assays were run in different laboratories.
# Target: Glycogen synthase kinase-3 beta (GSK3B, Homo sapiens, UniProt P49841)
# Sequence of UniProt P49841 (whole entry, looked up): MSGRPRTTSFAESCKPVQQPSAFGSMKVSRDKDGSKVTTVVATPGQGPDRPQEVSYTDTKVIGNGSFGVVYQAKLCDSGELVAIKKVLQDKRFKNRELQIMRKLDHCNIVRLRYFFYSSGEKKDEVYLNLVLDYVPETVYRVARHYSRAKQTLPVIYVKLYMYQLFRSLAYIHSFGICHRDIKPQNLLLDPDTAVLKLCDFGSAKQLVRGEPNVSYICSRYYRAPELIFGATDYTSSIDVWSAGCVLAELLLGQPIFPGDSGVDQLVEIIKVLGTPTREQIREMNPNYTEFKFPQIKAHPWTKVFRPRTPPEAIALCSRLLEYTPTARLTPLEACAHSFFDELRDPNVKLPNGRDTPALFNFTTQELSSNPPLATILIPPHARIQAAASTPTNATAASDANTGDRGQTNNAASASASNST
Structure (SMILES),assay,test system,conditions,how to read,endpoint,result
CS(C)(=O)=Nc1ccc(-c2ccc(-c3nc4cc(O[C@@H]5CO[C@H]6[C@@H]5OC[C@H]6O)[nH]c4cc3F)cc2)cc1,"enzyme activity, inhibitor",,10 µM,,inhibition,-19%
CCOC(=O)[C@@H]1Cc2c(cc([N+](=O)[O-])cc2[N+](=O)[O-])[C@H](O)[C@]12C(=O)Nc1ccc(Br)cc12,"binding, competition with immobilised ligand",,0.1 µM,,remaining binding,44%
Nc1ccc(/C=C/C(=O)N2CCc3c(oc4c(-c5ccc(F)cc5)cc(-c5ccc(C(=O)N6CCC(F)(F)CC6)cn5)cc34)C2)cn1,"binding, competition with immobilised ligand",,1 µM,,remaining binding,100%
C=CC(=O)Nc1cc(-c2nn(C3CCC(N4CCN(C(C)=O)CC4)CC3)c3ncnc(N)c23)ccc1Oc1ccccc1 (centres unmarked),"inhibitor, KiNativ profiling",biochemical,2 µM,,inhibition,-9.3%
CN(/N=C/c1ccccc1C(=O)O)c1nc(-c2ccccc2Cl)cs1,"enzyme activity, inhibitor",,1 µM,,inhibition,-8.51%
CC(C)[C@H]1NC(=O)C[C@H]2/C=C/CCSSC[C@@H](NC1=O)C(=O)N[C@H](Cc1cccc3ccccc13)C(=O)NCC(=O)O2,"enzyme activity, inhibitor",,10 µM,,inhibition,-3.6%
CN(C)[C@H]1C[C@@]23CC[C@@]4(O2)C(=CC[C@]2(C)[C@@H](c5ccc6ccncc6c5)CC[C@H]24)C=C3[C@@H](O)[C@@H]1O,"ATP probe labelling, inhibitor, KiNativ profiling",,1 µM,,inhibition,5.2%
CCOC(=O)[C@](CC)(CCCSCCOCCOCCNC(=O)c1ccc(-c2c3ccc(=N)c(S(=O)(=O)O)c-3oc3c(S(=O)(=O)O)c(N)ccc23)c(C(=O)O)c1)NC(=O)c1ccc(C2CC2)c(Cc2ccc(F)cc2)n1,"enzyme activity, inhibitor",,10 µM,,inhibition,-10%
N[C@H](C(=O)N1CCCC1)C1CCN(c2nccc3c(-c4ncc(Cl)cc4Cl)cccc23)CC1,"kinase activity, inhibitor",,"10 µM, with: ATP 1 mM",,inhibition,-0.3%
O=C1NC(=O)c2c1c1cc(F)c[n+]3c1c1c2c2cc(O)ccc2[n]1[Ru-4]312([N]=C=S)[S+]3CC[S+]1CC[S+]2CC3 (centres unmarked),enzyme activity,,"100 nM, human enzyme, with: 10 µM ATP",baseline: untreated,remaining activity,56%
C[C@H](NCc1ccc(-c2ccc(C(F)(F)F)cc2)cc1)C(N)=O,"cell-free assay, competition with immobilised ligand",,1 µM,,inhibition,8%

# Some of these lines once more:
Structure (SMILES),assay,test system,conditions,how to read,endpoint,result
CCOC(=O)[C@](CC)(CCCSCCOCCOCCNC(=O)c1ccc(-c2c3ccc(=N)c(S(=O)(=O)O)c-3oc3c(S(=O)(=O)O)c(N)ccc23)c(C(=O)O)c1)NC(=O)c1ccc(C2CC2)c(Cc2ccc(F)cc2)n1,"enzyme activity, inhibitor",,10 µM,,inhibition,-10%
